Assay results collected from several papers.
A part holds a random share of what one study measured.

Study 1
Target: Histone acetyltransferase KAT6A, winged helix 1, GST fusion (KAT6A, Homo sapiens, UniProt Q92794, residues 1-85)
Method: protein binding microarray
Form: double-stranded DNA, one strand shown
Matrix: in vitro
Concentration: not given
Setting: 8-mer, flanks averaged, mean of 2 arrays, mostly near background
Baseline: not given
Reading: higher = stronger binding
Construct (chain): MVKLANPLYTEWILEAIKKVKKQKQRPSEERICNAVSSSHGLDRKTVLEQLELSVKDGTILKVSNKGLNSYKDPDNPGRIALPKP
Sequence	E-score
AGAAGGGC	-0.0509
CGTGCAGC	0.149
CCATTTAG	-0.126
GTAGGGAA	-0.0528

Study 2
Target: Ras GTPase-activating protein-binding protein 1, C-terminal RGG region (G3BP1, Homo sapiens, UniProt Q13283)
UniProt Q13283, sequence (whole entry, looked up): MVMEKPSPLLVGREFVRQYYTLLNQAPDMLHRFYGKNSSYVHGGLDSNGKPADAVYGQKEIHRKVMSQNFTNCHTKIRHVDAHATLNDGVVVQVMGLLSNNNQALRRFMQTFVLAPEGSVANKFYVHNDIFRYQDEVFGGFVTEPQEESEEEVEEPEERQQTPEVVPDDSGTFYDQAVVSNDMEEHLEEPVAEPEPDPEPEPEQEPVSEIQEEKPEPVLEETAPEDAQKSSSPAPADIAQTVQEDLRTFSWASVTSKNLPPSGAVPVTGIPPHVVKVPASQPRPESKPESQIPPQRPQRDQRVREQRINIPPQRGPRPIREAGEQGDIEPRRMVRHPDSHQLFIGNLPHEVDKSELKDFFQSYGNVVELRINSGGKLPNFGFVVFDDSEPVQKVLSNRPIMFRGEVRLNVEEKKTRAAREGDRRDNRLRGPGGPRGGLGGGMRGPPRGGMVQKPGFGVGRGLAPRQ
Method: RNA Bind-n-Seq
Form: RNA
Matrix: in vitro
Concentration: 1 µM
Setting: whole 134-nt RNA, ends assumed
Together with: 150 mM KCl
Baseline: input library
Reading: higher = stronger binding
Constant ends, left off below: GGGAGUUCUACAGUCCGACGAUC … UGGAAUUCUCGGGUGUCAAGG
Sequence	log2 enrichment
UCAAGUCCUGUGCUACACAUCGUAUGUACCGAAUCGGGUGGGUUUUUGGGAGGGAAAGUAUUAUGUUACGCCGUUCGGAUCUGCACUUCC	1.02
CCUGUGCUACACAUCGUAUGUACCGAAUCGGGGCCCCCCCGGCCCCCCCGGGCCCCCCCGGAAAGUAUUAUGUUACGCCGUUCGGAUCUG	-1.28
AGUCCUGUGCUACACAUCGUAUGUACCGAAUCGGGAAAAGGGGAAAAGGGAAAAGGGAAAGUAUUAUGUUACGCCGUUCGGAUCUGCACU	1.05
ACCAUGCAGGUGGGCAUCUUUGGGAAGUGGGGCAAGGGGGGGAUAGGGAGGGGGGUAACACUUUGGGAACAGGUGGUCACAGGUCGUUUC	2.16
CAAGUCCUGUGCUACACAUCGUAUGUACCGAAUCGGGGAGGGGUUUGGGGUGGGGAAAGUAUUAUGUUACGCCGUUCGGAUCUGCACUUC	2.93

Study 3
Target: Interferon regulatory factor 3, full length, phosphomimetic (IRF3, Homo sapiens, UniProt Q14653, residues 1-427, S386D/S396D/S398D/S402D/T404D/S405D)
UniProt Q14653, sequence (whole entry, unmodified, looked up): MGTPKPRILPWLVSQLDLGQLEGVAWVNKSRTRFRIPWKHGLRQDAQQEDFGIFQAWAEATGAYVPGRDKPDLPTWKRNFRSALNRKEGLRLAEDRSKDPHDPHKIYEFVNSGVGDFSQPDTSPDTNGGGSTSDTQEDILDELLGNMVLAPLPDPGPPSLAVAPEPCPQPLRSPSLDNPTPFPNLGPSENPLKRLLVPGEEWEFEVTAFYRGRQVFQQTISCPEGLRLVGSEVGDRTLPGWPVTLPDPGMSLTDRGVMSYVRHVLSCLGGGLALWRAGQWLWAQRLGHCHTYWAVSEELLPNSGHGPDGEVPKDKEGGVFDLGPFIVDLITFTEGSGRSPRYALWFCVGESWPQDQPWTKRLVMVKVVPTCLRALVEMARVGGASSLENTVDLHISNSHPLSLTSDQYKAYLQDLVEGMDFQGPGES
Method: protein-binding microarray
Form: double-stranded DNA, one strand shown
Matrix: in vitro
Concentration: 2540 nM top
Setting: 60-bp whole probe
Together with: salmon DNA 0.4 mg/ml
Baseline: random background probes
Reading: higher = stronger binding
Sequence	fitted relative affinity
GCCTAGCACTTACATCTCAGTTTCGATTAGTGCTAGGTCTTGATTCGCTTGACGCTGCTG	3.77 z-score
GCCTAGCACACCCGAGTCCCTATCTCCTCGTGCTAGGTCTTGATTCGCTTGACGCTGCTG	0.545 z-score
GCCTAGCACGACGATTTTGGGTATCGAGACGTGCTAGTCTTGATTCGCTTGACGCTGCTG	0.472 z-score
GCCTAGCACGACGTTATCGGGTTTCGAGACGTGCTAGTCTTGATTCGCTTGACGCTGCTG	1.44 z-score

Further values, each from its own experiment
Molecule	target	test	test system	setting	how to read	quantity	result
PhoQ, residues 284 288 289 292 302 303 SSLVEF	PhoP, residues 12 14 15 18 19 LYHSL (Escherichia coli, UniProt P23836)	Sort-seq, measured: YFP reporter	E. coli	PhoQ-PhoP variant library, together with: 10 µM Mg2+	baseline: high Mg2+ state, higher = stronger signaling	fold induction	3.83

Repeated from above (study 3):
Sequence	fitted relative affinity
GCCTAGCACACCCGAGTCCCTATCTCCTCGTGCTAGGTCTTGATTCGCTTGACGCTGCTG	0.545 z-score
GCCTAGCACGACGATTTTGGGTATCGAGACGTGCTAGTCTTGATTCGCTTGACGCTGCTG	0.472 z-score
